Assay results from different studies.
Parts stem from different laboratories: compare values within a part only. Values joined by “and” are separate records of one study, mostly repeats; a detail may differ.
UniProt O43318, sequence (whole entry, looked up): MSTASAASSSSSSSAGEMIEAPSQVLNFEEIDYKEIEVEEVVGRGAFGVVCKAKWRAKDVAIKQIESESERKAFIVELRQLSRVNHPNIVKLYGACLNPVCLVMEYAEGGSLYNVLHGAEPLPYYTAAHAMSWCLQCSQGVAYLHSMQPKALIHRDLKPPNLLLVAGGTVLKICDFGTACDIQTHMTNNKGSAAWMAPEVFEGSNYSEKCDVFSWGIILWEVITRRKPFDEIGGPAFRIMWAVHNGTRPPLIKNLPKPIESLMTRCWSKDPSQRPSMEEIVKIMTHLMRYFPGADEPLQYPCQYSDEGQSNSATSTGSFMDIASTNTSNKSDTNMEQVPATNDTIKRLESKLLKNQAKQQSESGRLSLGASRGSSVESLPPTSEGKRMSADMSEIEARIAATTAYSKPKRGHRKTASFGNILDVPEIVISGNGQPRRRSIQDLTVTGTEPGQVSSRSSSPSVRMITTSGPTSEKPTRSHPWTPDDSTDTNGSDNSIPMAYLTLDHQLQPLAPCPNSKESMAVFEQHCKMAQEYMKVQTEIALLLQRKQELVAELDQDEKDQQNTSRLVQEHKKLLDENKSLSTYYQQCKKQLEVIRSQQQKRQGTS
UniProt Q99640, sequence (whole entry, looked up): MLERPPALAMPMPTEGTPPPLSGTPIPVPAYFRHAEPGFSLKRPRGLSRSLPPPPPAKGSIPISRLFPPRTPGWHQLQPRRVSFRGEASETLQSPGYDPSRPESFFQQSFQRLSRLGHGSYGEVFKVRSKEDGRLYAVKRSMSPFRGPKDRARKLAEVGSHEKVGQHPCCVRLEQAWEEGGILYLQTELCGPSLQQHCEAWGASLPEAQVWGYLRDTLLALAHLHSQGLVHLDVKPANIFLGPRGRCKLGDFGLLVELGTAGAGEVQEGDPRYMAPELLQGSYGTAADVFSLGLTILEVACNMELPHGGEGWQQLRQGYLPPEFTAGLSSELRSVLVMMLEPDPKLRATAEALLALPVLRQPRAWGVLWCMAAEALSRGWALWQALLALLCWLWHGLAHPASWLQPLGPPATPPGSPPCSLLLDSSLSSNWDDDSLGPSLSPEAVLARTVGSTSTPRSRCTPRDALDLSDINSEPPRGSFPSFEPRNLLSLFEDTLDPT
UniProt P49840, sequence (whole entry, looked up): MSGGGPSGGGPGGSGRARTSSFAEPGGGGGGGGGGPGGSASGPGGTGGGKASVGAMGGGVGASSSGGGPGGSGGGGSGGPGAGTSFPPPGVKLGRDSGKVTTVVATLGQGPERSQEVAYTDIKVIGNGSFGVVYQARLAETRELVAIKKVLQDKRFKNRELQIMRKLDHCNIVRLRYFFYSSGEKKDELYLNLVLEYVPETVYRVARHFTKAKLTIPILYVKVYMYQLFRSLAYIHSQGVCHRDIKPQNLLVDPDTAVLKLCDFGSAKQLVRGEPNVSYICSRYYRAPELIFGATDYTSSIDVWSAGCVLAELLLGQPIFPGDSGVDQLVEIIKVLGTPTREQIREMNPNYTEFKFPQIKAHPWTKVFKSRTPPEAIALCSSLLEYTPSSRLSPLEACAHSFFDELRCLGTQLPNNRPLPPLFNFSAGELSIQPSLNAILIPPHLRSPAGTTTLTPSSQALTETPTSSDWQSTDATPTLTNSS

Set 1
Target: DNA polymerase theta, ATPase domain (POLQ, Homo sapiens, UniProt O75417)
UniProt O75417, sequence (whole entry, unmodified, looked up): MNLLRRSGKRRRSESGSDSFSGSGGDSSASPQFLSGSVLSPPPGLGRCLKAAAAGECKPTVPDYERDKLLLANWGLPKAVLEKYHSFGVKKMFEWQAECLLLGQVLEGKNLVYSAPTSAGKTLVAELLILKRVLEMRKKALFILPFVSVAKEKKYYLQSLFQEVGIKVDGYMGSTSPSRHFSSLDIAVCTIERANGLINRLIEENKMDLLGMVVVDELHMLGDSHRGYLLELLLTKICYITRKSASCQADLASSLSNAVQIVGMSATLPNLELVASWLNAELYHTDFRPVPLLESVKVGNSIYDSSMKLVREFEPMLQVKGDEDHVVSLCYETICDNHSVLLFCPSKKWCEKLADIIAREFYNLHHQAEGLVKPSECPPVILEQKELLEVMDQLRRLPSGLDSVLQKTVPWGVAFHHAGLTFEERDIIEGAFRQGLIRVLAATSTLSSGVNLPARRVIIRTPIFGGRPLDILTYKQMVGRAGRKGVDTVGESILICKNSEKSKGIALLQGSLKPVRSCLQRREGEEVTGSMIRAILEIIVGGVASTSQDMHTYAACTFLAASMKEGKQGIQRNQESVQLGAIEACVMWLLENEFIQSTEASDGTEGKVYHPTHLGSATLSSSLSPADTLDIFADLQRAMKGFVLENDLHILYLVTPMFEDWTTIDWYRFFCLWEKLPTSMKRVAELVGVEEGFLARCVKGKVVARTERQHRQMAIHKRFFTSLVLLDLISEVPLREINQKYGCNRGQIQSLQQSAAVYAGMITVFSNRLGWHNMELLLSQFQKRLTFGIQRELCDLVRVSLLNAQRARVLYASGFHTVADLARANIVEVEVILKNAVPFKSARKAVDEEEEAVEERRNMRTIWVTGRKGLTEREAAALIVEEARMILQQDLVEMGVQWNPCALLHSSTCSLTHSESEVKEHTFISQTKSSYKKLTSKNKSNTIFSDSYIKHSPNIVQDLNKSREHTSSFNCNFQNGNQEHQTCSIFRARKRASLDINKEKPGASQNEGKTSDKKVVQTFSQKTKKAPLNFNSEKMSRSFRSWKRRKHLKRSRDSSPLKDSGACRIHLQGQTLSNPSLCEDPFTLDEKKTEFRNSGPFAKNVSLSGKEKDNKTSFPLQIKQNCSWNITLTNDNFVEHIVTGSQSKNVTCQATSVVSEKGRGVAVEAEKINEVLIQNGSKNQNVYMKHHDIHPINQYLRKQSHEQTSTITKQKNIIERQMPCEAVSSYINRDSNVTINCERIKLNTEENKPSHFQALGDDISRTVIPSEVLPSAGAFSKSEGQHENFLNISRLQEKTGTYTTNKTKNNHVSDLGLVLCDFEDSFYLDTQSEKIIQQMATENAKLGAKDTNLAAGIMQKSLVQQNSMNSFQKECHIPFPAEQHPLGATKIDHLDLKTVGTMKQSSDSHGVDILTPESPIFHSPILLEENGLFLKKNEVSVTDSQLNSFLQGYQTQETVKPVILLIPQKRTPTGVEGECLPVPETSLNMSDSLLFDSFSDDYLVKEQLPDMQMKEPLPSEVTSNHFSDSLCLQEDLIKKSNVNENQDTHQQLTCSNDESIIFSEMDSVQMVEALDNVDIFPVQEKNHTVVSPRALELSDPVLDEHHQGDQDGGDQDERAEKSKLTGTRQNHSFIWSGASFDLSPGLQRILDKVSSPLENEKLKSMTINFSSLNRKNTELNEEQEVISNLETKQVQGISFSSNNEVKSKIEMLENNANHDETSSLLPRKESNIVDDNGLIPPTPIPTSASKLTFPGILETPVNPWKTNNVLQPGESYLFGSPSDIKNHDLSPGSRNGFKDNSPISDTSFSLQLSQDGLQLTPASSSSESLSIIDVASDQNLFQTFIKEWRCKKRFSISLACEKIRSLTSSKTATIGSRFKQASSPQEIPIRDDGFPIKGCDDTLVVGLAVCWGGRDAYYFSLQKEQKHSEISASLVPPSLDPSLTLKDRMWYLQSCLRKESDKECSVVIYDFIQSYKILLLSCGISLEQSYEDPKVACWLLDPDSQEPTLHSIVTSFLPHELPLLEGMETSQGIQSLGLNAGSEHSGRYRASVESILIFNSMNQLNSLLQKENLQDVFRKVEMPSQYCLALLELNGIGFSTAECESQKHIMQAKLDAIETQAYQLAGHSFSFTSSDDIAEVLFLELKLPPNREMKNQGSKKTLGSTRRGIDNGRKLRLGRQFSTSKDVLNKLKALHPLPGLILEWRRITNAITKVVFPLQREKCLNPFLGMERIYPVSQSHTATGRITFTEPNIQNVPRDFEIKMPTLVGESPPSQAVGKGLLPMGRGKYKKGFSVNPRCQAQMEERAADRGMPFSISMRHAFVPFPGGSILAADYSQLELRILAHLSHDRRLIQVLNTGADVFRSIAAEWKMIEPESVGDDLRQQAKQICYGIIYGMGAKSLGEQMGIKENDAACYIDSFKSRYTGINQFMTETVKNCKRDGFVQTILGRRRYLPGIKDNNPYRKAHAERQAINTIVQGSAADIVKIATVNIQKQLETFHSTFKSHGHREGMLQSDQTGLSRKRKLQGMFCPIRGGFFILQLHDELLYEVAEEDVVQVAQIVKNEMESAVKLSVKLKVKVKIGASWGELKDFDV
Effect on: enzyme activity
Action: inhibitor
Concentration: 77 µM
Baseline: untreated
Quantity: remaining activity
Cn1c(=O)c2nc[nH]c2n(C)c1=O: 93% and 111%
O=C(c1cc(O)c(O)c([N+](=O)[O-])c1)c1ccccc1F: 87.1%
CC(=O)OCC(=O)[C@@]1(O)CC[C@H]2[C@@H]3CCC4=CC(=O)CC[C@]4(C)[C@H]3C(=O)C[C@@]21C: 92.6%
CNC(=O)CN1CCC(Oc2cc3c(Nc4cccc(Cl)c4F)ncnc3cc2OC)CC1: 96.7%
Nc1ncnc2c1ncn2C1CCCO1 (centres unmarked): 92%
CC1=C(/C=C/C(C)=C/C=C/C(C)=C/C(=O)Nc2ccc(O)cc2)C(C)(C)CCC1: 101%
NCCCS(=O)(=O)O: 97.6%
COc1cc(C)c(/C=C/C(C)=C/C=C/C(C)=C/C(=O)O)c(C)c1C: 99.3%
Cc1noc(-c2ccc(CSCCC(=O)O)cc2)c1NC(=O)OC(C)c1ccccc1Cl (centres unmarked): 96.9%

Set 2
Target: Serine/threonine-protein kinase TAO3 (TAOK3, Homo sapiens, UniProt Q9H2K8)
UniProt Q9H2K8, sequence (whole entry, looked up): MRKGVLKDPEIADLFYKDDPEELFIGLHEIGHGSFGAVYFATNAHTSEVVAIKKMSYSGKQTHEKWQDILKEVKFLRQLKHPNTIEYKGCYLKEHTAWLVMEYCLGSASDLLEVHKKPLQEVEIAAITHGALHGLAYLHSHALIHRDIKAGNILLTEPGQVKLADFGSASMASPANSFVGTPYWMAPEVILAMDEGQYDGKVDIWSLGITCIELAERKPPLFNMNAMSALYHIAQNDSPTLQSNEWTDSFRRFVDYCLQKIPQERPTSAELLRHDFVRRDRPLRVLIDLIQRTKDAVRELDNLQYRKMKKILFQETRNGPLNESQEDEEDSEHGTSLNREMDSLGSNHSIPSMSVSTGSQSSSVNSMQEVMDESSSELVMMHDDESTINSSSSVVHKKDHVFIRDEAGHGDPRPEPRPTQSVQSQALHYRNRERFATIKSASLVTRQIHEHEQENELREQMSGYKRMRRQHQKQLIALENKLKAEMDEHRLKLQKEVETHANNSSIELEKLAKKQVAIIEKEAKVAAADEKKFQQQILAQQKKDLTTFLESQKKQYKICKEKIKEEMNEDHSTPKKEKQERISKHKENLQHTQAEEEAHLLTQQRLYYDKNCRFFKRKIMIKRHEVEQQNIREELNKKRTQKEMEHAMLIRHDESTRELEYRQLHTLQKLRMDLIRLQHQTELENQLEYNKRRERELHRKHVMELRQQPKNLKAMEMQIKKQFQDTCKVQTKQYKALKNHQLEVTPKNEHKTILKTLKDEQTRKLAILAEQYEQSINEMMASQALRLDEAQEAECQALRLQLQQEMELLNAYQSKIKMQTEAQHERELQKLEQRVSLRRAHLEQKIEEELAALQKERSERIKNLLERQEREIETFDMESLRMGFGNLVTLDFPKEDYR
Effect on: enzyme activity
Action: inhibitor
Concentration: 0.5 µM
Baseline: control
Quantity: remaining activity
Fc1ccc(-c2nc3n(c2-c2ccncc2)CCS3)cc1: 98.9%
CC[n+]1c(/C=C/N(C)c2ccccc2)n(-c2ccccc2)c2ccc(-c3nc4ccccc4s3)cc21: 116%
Nc1ncnc2c1cnn2-c1ccccc1: 89.1%
CC#CC(=O)Nc1cc2c(Nc3ccc(F)c(Cl)c3)ncnc2cn1: 110%
Cc1cc(Nc2nc(-c3ccccc3)nc3ccccc23)n[nH]1: 86.9%
Cc1cncc2cccc(S(=O)(=O)N3CCCN(C(=O)CN)C[C@@H]3C)c12: 96.2%
O=C1NC(=O)C(c2c[nH]c3ccccc23)=C1c1c[nH]c2ccccc12: 85.2%
CC(=O)c1ccc(N2CCOCC2)cc1O: 98.4%
Cc1ccc(NC2=CC(=O)c3sc(C)nc3C2=O)cc1: 98.9%
CSc1nc(-c2ccnc(N[C@@H](C)c3ccccc3)c2)c(-c2ccc(F)cc2)[nH]1 (racemic): 91.7%
CC(C)(C)n1nc(Cc2cccc3ccccc23)c2c(N)ncnc21: 86%
Nc1nccc(-c2c(-c3ccc(F)cc3)ncn2C2CCNCC2)n1: 95.3%
CCCC(=O)Oc1ccc2[nH]c(C(=O)c3cc4ccccc4[nH]3)cc2c1: 86.7%
Oc1ccc(Nc2nc(-c3ccc(Cl)cc3)cs2)cc1: 101%
O=S(=O)(NCCNC/C=C/c1ccc(Br)cc1)c1cccc2cnccc12: 95.4%
Nc1nc(Nc2ccc(S(N)(=O)=O)cc2)nn1C(=O)c1c(F)cccc1F: 39.9%
NC(=O)c1ccc(N(C(N)=O)c2c(F)cccc2F)nc1-c1ccc(F)cc1F: 95.7%
N#CC(=C(N)Sc1ccc(N)cc1)c1ccccc1C(F)(F)F: 98.6%
CCc1[nH]c(-c2ccc(OC)cc2)nc1-c1ccncc1: 107%
COc1ccc(S(=O)(=O)N(CCO)c2ccccc2CN(C)CC=Cc2ccc(Cl)cc2)cc1: 91.2%
O=C1Cc2c([nH]c3ccc([N+](=O)[O-])cc23)-c2ccccc2N1: 76.7%

Set 3
Structure (SMILES): CC(=O)N1CCC(c2ccc(C(=O)NC(=N)N)cc2C(F)(F)F)CC1
Effect on: cell-free assay
Technique: competition with immobilised ligand
Concentration: 1 µM
Quantity: remaining binding
GSK3A (Homo sapiens, UniProt P49840): 97%
PIM1 (Homo sapiens, UniProt P11309): 100%
MAP3K7 (Homo sapiens, UniProt O43318): 100%
RET (Homo sapiens, UniProt P07949, V804M): 100%
STK17B (Homo sapiens, UniProt O94768): 100%
Ribosomal protein S6 kinase alpha-5, C-terminal kinase domain (RPS6KA5, Homo sapiens, UniProt O75582): 97%
SGK1 (Homo sapiens, UniProt O00141): 100%
IGF1R (Homo sapiens, UniProt P08069): 100%
PI4KB (Homo sapiens, UniProt Q9UBF8): 100%
CSF1R (Homo sapiens, UniProt P07333): 100%
EGFR (Homo sapiens, UniProt P00533, G719C): 100%
PIK3CA (Homo sapiens, UniProt P42336, H1047L): 100%
SYK (Homo sapiens, UniProt P43405): 100%
CDK5 (Homo sapiens, UniProt Q00535): 87%
PRKACB (Homo sapiens, UniProt P22694): 100%
PKMYT1 (Homo sapiens, UniProt Q99640): 100%

Further values, each from its own experiment
CC(C)n1cnc(-c2ccc(F)cc2)c1-c1ncc(C(=O)Nc2ccc(N3CCN(C)CC3)cc2)[nH]1
coronary arteriosclerosis incidence (IPF patients; 60 mg once daily, adverse event): 0%
